# Assay results from different studies.
# Lines come from different studies, so protocols differ. ± marks the error that the study gave.
SMILES,test,test system,conditions,how to read,quantity,value
CC[C@H](C)[C@H](NC(=O)[C@H](CC(C)C)NC(=O)[C@H](Cc1c[nH]c2ccccc12)NC(=O)[C@H](C)NC(=O)[C@@H](NC(=O)[C@H](Cc1ccccc1)NC(=O)[C@H](CC(=O)O)NC(=O)[C@H](CCCNC(=N)N)NC(=O)[C@H](C)NC(=O)[C@H](C)NC(=O)[C@H](CC(C)C)NC(=O)[C@H](C)NC(=O)[C@H](CC(=O)O)NC(=O)[C@H](CC(C)C)NC(=O)[C@@H](NC(=O)[C@@H](NC(=O)[C@H](C)NC(=O)[C@H](CC(C)C)NC(=O)[C@H](CCC(=O)O)NC(=O)[C@H](CO)NC(=O)[C@H](CO)NC(=O)[C@H](Cc1ccccc1)NC(=O)[C@@H](NC(=O)CNC(=O)[C@H](CCC(=O)O)NC(=O)CNC(=O)[C@@H](N)Cc1cnc[nH]1)[C@@H](C)O)[C@@H](C)O)[C@@H](C)CC)[C@@H](C)CC)C(=O)N[C@@H](C)C(=O)N[C@H](C(=O)N[C@@H](CCCCN)C(=O)N[C@H](C(=O)N[C@H](C(=O)N[C@@H](CC(=O)O)C(=O)N[C@@H](CCCCN)C(=O)N[C@@H](CCCCN)C(=O)N[C@@H](CCCCN)C(=O)N[C@@H](CCCCN)C(=O)N[C@@H](CCCCN)C(=O)N[C@@H](CCCCN)C(N)=O)[C@@H](C)O)[C@@H](C)CC)[C@@H](C)O,,"healthy humans, plasma","subcutaneous, 5 mg once weekly, 6 doses, day 36, geometric mean",,AUC(0-last),119 nM·h
CCCC[C@H](NC(=O)CNC(=O)CNC(=O)CN1CCN(CC(=O)O)CCN(CC(=O)O)CC1)C(=O)N[C@H]1CC(=O)NCCCC[C@@H](C(N)=O)NC(=O)[C@H](Cc2c[nH]c3ccccc23)NC(=O)[C@H](CCCNC(=N)N)NC(=O)[C@@H](Cc2ccccc2)NC(=O)[C@H](Cc2c[nH]cn2)NC1=O [copper-64 labelled],,"female C57 mouse, B16/F1 melanoma, muscle","intravenous, 0.037 MBq, 24 h",,tissue uptake,0.04 ± 0.03 %ID/g
O=C(CCCCC[N+]#[C][99Tc-5]([C]#[N+]CCCCCC(=O)N[C@H]1C(O)O[C@H](CO)[C@@H](O)[C@@H]1O)([C]#[N+]CCCCCC(=O)N[C@H]1C(O)O[C@H](CO)[C@@H](O)[C@@H]1O)([C]#[N+]CCCCCC(=O)N[C@H]1C(O)O[C@H](CO)[C@@H](O)[C@@H]1O)([C]#[N+]CCCCCC(=O)N[C@H]1C(O)O[C@H](CO)[C@@H](O)[C@@H]1O)[C]#[N+]CCCCCC(=O)N[C@H]1C(O)O[C@H](CO)[C@@H](O)[C@@H]1O)N[C@H]1C(O)O[C@H](CO)[C@@H](O)[C@@H]1O (stereo partly drawn),two-compartment model,"CD-1 mouse, blood",dose not given,,peripheral volume of distribution,0.003 L/kg
Cc1ccc(OCC(=O)N(Cc2cccs2)c2ccn[nH]2)cc1,,"male Sprague-Dawley rat, plasma","oral, 30 mg/kg, single dose",,Tmax,0.31 h
NC(=O)[C@H](Cc1ccccc1)N[11C](=O)OCc1ccccc1,,"male Wistar rat, brain and spinal cord","intravenous, 27.3 MBq",,intact compound,> 95%
NC12CNCCNCC(NCc3ccc(CNC(=O)CCCC(=O)NCc4ccc(-c5nncnn5)cc4)cc3)(CNCCNC1)CNCCNC2.[64Cu+2],OLINDA dosimetry,small intestine,"24 h pretargeting interval, with: huA33-TCO pretargeting",,mean absorbed dose,0.042 rad/mCi
O=C(Cc1ccc2ccccc2c1)N[C@H](Cc1ccc(OP(=O)(O)O)cc1)C(=O)N[C@H](Cc1ccccc1)C(=O)N[C@H](Cc1ccccc1)C(=O)N[C@H](Cc1ccc(OP(=O)(O)O)cc1)C(=O)O,"substrate, rheology",hydrogel,"0.5 wt%, with: alkaline phosphatase 0.05 U/mL",,gelation time,2.5 h
COc1ccc(-c2csc(N/N=C(\C)c3cc(O)cc(O)c3)n2)cc1,LC-MS/MS,rat plasma,"1000 ng/mL, freeze-thaw 5 cycles at 20 °C",,concentration after storage,0.956 µg/mL
O=C([O-])CN1CCN(CC(=O)[O-])CCN(CC(=O)c2ccc(-c3ccc(OCC(=O)O)cc3)cc2)CCN(CC(=O)[O-])CC1.[Eu+3],,1 M HCl,298 K,,dissociation half-life,5.33 ± 0.333 h
[11CH3]c1ccc2nc(C3CCC3)n(-c3ccc4[nH]ncc4c3)c2n1,,"human female, skin",,,absorbed radiation dose,2.2 µSv/MBq
CC[C@@H](C)[C@@H](NC(=O)[C@@H](C)NC(=O)[C@@H](CCCCN)NC(=O)[C@@H](CC(C)C)NC(=O)[C@@H](CC(C)C)NC(=O)[C@H](NC(=O)[C@@H](CCCCN)NC(=O)[C@@H](CC(C)C)NC(=O)[C@@H](C)NC(=O)[C@@H](CCCCN)NC(=O)[C@@H](CCCCN)NC(=O)[C@@H](CCCCN)NC(=O)[C@@H](C)NC(=O)[C@@H](CCCCN)NC(=O)[C@@H](CO)NC(=O)[C@@H](Cc1ccccc1)NC(=O)[C@H](NC(=O)[C@@H](CCCCN)NC(=O)[C@@H](CC(C)C)NC(=O)[C@@H](Cc1ccccc1)NC(=O)[C@@H](CO)NC(=O)[C@@H](CCCCN)NC(=O)[C@@H](Cc1c[nH]c2ccccc12)NC(=O)[C@@H](CCCCN)NC(C)=O)[C@H](C)O)[C@H](C)O)C(=O)N[C@H](CO)C(=O)N[C@H](CCCCN)C(N)=O,circular dichroism,aqueous buffer,"pH 7.0, 5 °C",reference: reference peptide in TFE,helical content,28%
Cn1c(=O)oc2ccc(-c3ccc(CC(C#N)NC(=O)C4CNCCCO4)c(F)c3)cc21 (stereo not drawn),refers to: glucose urine present,human,"40 mg single dose, fasted",,subjects with TEAE,16.7%
N=C(N)NCCC[C@@H]1NC(=O)[C@H](Cc2c[nH]c3ccccc23)NC(=O)[C@@H](CC2CCCCC2)NC(=O)[C@@H]2CCCN2C(=O)[C@@H](NC(=O)CCc2ccccc2)CCCNC1=O,,"C57BL/6J mice, plasma","subcutaneous, 1 mg/kg",,absorption half-life,0.314 h
COC(=O)C(c1ccccc1Cl)N1CCC(SCC(=O)c2cccc(OC)c2)C(=CC(=O)O)C1 (mixture of isomers),,feline plasma,-80 °C,,storage stability time,9 months
COc1cc(N(C)CCN(C)C)c(NC(=O)CCSCC(N)C(=O)O)cc1Nc1nccc(-c2cn(C3CC3)c3ccccc23)n1 (stereo not drawn),,"human, urine and feces","0 to 96 h urine, 0 to 240 h feces",reference: dose,excreted amount,1.89%
O=C([O-])c1cccc(CN(CCN(Cc2cn(Cc3ccccc3)nn2)Cc2cccc(C(=O)[O-])n2)Cc2cn(Cc3ccccc3)nn2)n1.[64Cu+2],,"mouse, liver","intravenous, 15 min",,tracer uptake,17.7 %ID/g
C[C@H](NC(=O)COC(=O)[C@H](C)NC(=O)CO)C(=O)O,,water,"pH 3, 25 °C",,depolymerization half-life,647 h
COc1cc([O-])c(C=NCCCN(C)CCN(C)CCCN=Cc2c([O-])cc(OC)cc2OC)c(OC)c1.[67Ga+3],,rat,"intravenous, 1 min",reference: heart over liver,tissue uptake ratio,0.33 ± 0.02
COc1cc(NC(C)=O)c2c(c1O)-c1c(OC)c(OC)cc3c1C(C2)N(C)CC3 (stereo not drawn),,rat liver homogenate,"5 µg/mL, 24 h, room temperature, post-preparative storage",,remaining compound,99.4 ± 0.7%
C=CC(=O)Nc1cc(Nc2nccc(-c3cn(C4CC4)c4ccccc34)n2)c(OC)cc1N(C)CCNC,radio-HPLC,"human male, feces","oral, 110 mg, 48 to 96 h, sample holds 20.06% dose",reference: dose,excreted amount,3.44%
O=c1nc(NO)ccn1[C@@H]1O[C@H](CO)[C@@H](O)[C@H]1O,"Western blot, refers to: CYP2C19","rat, normal, liver","oral, 80 mg/kg twice daily, 5 days",reference: control group,protein level,1.3 fold
CC(=O)N([O-])CCCCCNC(=O)CCC(=O)N([O-])CCCCCNC(=O)CCC(=O)N([O-])CCCCCN.[89Zr+4],radio-iTLC,aqueous buffer,"3 h, pH 8.0, 37 °C, EDTA challenge, with: 100-fold excess EDTA",,intact complex,97.5 ± 0.4%
NC[C@@H](C(=O)Nc1ccc(-c2cn[nH]c2)cc1)c1ccccc1,,"New Zealand White rabbits, aqueous humor","topical, 0.1 % one drop, 8 h",,concentration,~0.0816 µg/mL
O=C(O)[C@@H]1C[C@@H](O)CN1C(=O)[C@@H]1CCCN1,potentiometric titration,,"25 °C, MAH-3 complex, with: Fe(III)",,log beta,-10.9
[11CH3]N1CCN(CCCOc2ccc(=O)n(-c3ccc(Cl)c(Cl)c3)n2)CC1,PET-CT,"BALB/c mouse male, kidney","intravenous, dose not given, 5 min",,uptake,8.87 ± 1.16 %ID/cc
Cc1cc(O)cc(O)c1C(=O)c1c2c3c(c(O)cc(C)c3oc1=O)C(=O)c1c(O)cc(O)cc1-2,,Caco-2,"400 µM, 3 h, pH 7.4",,Papp A→B,5.8 nm/s
NC(=O)/C=C/c1cccc(S(=O)(=O)Nc2ccccc2)c1,,"human, severe liver dysfunction, plasma","intravenous, 400 mg/m^2 belinostat, cycle 1 day -7, geometric mean",reference: metabolite over belinostat,AUC(0-inf) metabolic ratio,1.13
Cc1cc(C(=O)Nc2nc3cccc(C)c3n2[C@H]2CCCCN(C(=O)/C=C/CN(C)C)C2)ccn1,,rat brain tissue,concentration not given,,brain tissue binding,> 99%
Cc1c(Cl)c(C)[n+]([O-])c(Cl)c1-c1no[14c](-c2cc(O)c(O)c([N+](=O)[O-])c2)n1,refers to: total radioactivity,"human, male, plasma","oral, 100 mg",,Tlag,0.5 h
COC(=O)c1ccc(CCc2cc3cc4nc(c(OC)c5[nH]c(cc6nc(cc2[nH]3)CC6(C)C)cc5CCCNC(=O)OC(C)(C)C)C(=O)C4(C)C)cc1,,DMF,room temperature,,kic^−1,10 ns
